Measurements from different studies.
Compare with care: the assays were run in different laboratories. ± marks the error that the study gave.
lecA: PA-I galactophilic lectin (lecA, Pseudomonas aeruginosa, UniProt Q05097)
Chain of UniProt Q05097 (whole entry, looked up): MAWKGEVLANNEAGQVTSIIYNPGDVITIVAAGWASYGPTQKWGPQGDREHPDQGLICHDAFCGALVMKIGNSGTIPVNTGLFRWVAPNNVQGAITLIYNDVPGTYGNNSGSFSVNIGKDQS
Chain of UniProt P22455 (whole entry, looked up): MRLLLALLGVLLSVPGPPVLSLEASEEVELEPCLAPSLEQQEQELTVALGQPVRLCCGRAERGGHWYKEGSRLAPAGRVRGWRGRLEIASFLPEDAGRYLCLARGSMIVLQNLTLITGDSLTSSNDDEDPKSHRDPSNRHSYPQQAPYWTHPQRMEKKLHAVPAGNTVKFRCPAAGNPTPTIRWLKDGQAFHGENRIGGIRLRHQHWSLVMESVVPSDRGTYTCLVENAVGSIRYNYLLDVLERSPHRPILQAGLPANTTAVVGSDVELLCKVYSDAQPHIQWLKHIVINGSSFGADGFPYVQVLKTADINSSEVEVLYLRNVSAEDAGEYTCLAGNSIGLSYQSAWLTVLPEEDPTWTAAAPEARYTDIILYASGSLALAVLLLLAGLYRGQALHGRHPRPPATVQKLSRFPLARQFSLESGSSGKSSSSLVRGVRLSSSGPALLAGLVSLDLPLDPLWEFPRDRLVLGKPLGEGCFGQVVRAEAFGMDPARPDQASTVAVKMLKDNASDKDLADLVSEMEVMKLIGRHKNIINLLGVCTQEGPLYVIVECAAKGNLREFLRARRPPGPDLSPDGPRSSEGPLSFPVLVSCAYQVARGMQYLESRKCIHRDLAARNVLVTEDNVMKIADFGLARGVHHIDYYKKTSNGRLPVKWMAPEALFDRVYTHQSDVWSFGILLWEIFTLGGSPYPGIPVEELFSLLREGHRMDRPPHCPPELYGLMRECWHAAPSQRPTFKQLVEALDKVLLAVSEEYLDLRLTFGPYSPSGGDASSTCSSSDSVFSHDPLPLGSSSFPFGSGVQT
Chain of UniProt P12004 (whole entry, looked up): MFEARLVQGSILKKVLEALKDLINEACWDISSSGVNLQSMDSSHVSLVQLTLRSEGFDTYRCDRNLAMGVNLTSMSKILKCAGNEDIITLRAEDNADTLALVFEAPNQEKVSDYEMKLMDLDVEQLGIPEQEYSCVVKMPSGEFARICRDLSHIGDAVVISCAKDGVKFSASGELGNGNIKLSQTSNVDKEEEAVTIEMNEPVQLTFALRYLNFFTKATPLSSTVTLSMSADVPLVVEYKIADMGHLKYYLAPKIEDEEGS
Chain of UniProt P63165 (whole entry, looked up): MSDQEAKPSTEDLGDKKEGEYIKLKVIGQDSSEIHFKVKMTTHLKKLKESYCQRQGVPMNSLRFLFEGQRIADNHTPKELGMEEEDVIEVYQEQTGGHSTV
Chain of UniProt Q06911 (whole entry, looked up): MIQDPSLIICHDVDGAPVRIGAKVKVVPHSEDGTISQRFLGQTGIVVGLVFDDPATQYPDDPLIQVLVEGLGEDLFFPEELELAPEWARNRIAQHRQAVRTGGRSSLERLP
Chain of UniProt Q07741 (whole entry, looked up): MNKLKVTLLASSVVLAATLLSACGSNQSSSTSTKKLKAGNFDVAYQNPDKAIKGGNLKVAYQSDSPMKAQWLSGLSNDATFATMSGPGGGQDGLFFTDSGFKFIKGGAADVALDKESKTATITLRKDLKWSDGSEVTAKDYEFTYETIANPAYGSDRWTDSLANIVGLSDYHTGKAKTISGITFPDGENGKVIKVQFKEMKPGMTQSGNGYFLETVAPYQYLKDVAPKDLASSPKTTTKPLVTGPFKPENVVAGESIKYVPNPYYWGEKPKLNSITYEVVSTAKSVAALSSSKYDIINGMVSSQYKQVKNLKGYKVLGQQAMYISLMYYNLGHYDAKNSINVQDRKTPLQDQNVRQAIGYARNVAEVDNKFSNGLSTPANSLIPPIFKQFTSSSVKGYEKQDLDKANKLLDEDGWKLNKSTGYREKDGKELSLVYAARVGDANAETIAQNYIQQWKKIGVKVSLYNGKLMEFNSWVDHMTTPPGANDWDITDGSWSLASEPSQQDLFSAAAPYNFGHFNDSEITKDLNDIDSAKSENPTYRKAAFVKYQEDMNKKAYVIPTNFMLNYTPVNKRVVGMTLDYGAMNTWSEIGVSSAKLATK
Chain of UniProt Q9NZC7 (whole entry, looked up): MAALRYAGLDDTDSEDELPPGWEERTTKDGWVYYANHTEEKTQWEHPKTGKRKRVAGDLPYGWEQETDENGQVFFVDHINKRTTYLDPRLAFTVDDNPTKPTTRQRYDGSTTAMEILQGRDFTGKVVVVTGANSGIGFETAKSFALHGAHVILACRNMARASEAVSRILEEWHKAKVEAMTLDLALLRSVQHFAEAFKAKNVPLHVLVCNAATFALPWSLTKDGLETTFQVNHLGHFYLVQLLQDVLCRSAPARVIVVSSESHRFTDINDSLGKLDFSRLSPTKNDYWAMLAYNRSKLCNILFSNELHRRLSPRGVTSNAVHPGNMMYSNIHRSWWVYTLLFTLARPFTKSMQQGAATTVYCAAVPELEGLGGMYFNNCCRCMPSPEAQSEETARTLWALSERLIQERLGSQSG
Chain of UniProt Q9Y294 (whole entry, looked up): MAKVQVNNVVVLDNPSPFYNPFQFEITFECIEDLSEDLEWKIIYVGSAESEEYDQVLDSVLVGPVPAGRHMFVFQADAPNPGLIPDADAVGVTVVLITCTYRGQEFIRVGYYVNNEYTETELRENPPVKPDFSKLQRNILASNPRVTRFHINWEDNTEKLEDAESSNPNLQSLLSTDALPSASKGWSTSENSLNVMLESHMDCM
Chain of UniProt Q9UEF7 (whole entry, looked up): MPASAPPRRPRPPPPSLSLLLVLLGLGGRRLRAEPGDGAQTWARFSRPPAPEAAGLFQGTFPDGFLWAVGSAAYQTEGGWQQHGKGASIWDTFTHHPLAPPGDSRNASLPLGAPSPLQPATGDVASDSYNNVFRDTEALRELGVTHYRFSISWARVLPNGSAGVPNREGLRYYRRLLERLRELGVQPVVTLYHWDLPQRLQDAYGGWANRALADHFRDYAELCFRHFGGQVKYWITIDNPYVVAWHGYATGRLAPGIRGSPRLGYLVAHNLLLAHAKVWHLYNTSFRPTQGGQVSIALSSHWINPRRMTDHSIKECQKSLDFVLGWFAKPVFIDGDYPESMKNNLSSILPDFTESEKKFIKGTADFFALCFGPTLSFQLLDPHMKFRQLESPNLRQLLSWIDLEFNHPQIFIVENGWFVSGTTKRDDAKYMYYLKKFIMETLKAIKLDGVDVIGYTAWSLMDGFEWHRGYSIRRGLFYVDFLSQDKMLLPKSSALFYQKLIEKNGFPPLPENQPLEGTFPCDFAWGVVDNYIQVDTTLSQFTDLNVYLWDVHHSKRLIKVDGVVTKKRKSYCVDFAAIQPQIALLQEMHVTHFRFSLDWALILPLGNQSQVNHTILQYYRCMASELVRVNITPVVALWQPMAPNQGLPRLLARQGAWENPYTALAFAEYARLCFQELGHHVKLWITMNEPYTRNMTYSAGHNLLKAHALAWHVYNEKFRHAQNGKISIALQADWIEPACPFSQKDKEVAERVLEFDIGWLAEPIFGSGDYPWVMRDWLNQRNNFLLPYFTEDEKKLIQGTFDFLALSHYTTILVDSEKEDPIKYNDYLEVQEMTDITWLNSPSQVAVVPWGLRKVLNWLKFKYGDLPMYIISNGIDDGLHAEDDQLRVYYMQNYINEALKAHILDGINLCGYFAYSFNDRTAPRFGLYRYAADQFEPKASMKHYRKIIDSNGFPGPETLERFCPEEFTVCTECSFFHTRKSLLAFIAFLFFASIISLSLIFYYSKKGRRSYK
Chain of UniProt P09622 (whole entry, looked up): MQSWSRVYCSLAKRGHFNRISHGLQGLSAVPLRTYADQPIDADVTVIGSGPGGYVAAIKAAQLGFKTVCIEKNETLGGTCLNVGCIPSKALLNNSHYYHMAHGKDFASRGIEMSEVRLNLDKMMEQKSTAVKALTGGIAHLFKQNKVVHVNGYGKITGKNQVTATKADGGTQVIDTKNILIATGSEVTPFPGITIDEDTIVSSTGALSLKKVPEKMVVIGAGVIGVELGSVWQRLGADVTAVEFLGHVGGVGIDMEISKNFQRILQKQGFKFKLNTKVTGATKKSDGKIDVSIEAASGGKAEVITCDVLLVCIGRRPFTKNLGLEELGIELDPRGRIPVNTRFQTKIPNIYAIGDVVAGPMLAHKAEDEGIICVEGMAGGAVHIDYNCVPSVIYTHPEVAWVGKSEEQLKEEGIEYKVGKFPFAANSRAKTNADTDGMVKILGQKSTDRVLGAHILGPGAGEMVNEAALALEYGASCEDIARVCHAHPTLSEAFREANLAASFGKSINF
Chain of UniProt P42568 (whole entry, looked up): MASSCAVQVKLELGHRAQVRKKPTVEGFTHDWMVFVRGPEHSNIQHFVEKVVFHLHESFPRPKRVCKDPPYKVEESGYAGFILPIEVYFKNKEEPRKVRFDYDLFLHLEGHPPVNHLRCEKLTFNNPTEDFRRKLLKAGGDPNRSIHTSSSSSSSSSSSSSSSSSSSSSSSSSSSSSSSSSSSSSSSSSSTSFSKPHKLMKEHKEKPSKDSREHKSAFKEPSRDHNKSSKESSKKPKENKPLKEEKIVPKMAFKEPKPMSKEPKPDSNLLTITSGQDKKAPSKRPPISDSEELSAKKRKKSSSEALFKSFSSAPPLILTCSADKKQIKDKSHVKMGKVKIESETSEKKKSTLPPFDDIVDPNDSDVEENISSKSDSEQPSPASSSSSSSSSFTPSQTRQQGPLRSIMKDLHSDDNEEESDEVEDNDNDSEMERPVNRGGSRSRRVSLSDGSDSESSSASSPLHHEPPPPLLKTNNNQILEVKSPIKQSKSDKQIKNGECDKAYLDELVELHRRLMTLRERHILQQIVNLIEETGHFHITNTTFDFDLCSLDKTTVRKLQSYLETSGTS
Chain of UniProt Q9Y6Y9 (whole entry, looked up): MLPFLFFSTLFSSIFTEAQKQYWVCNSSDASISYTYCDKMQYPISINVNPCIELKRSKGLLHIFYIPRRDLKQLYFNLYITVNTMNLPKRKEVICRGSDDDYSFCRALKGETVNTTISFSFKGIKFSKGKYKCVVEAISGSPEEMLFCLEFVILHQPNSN

CC[C@H](C)[C@H](NC(=O)[C@@H]1CCCN1C(=O)[C@@H]1CCCN1C(=O)[C@@H]1CCCN1C(=O)[C@@H](NC(=O)[C@H](CC(N)=O)NC(=O)[C@H](Cc1ccccc1)NC(=O)[C@H](C)N)[C@@H](C)CC)C(=O)N[C@@H](Cc1ccc(O)cc1)C(=O)N[C@H](C(=O)N[C@@H](CO)C(=O)N[C@@H](CCCNC(=N)N)C(=O)N[C@@H](C)C(=O)O)[C@@H](C)O
Kd (WW domain-containing oxidoreductase, WW1-WW2 tandem domains (WWOX, Homo sapiens, UniProt Q9NZC7); ITC; tandem WW1-WW2 domain; pH 7.8, 20 °C, some values lower limits only): > 100 µM

CSCC[C@@H]1NC(=O)[C@H](CO)NC(=O)[C@@H](NC(=O)[C@H](CCC(N)=O)NC(=O)[C@H](CCCNC(=N)N)NC(C)=O)CSCCCSC[C@@H](C(=O)N[C@@H](Cc2ccccc2)C(=O)N[C@@H](Cc2ccc(O)cc2)C(=O)N[C@@H](Cc2c[nH]cn2)C(=O)N[C@@H](CO)C(=O)N[C@@H](CCCCN)C(N)=O)NC(=O)[C@H]([C@@H](C)O)NC1=O
Kd (PCNA (Homo sapiens, UniProt P12004); binding, SPR): 0.769 µM

CSCC[C@H](NC(C)=O)C(=O)N[C@@H](CC(=O)O)C(=O)N[C@@H](CO)C(=O)N[C@@H](CCCCN)C(=O)N[C@@H](Cc1ccc(O)cc1)C(=O)N[C@H](C(=O)N[C@H](C(=O)N[C@@H](CC(C)C)C(=O)N[C@@H](Cc1ccc(O)cc1)C(=O)N[C@@H](Cc1ccc(O)cc1)C(=O)N[C@@H](CCC(N)=O)C(=O)N[C@@H](CC(C)C)C(=O)N[C@@H](Cc1c[nH]c2ccccc12)C(=O)N[C@@H](Cc1c[nH]c2ccccc12)C(=O)N[C@@H](CCCCN)C(=O)NCC(=O)N[C@@H](CO)C(=O)NCC(=O)N[C@@H](CO)C(=O)NCC(=O)N[C@@H](CO)C(=O)N[C@@H](CC(=O)O)C(=O)N[C@@H](Cc1ccc(O)cc1)C(=O)N[C@@H](CCCCN)C(=O)N[C@@H](CC(=O)O)C(=O)N[C@@H](CC(=O)O)C(=O)N[C@@H](CC(=O)O)C(=O)N[C@@H](CC(=O)O)C(=O)N[C@@H](CCCCN)C(=O)N[C@@H](CCCCN=[N+]=[N-])C(N)=O)[C@@H](C)O)C(C)C
Kd (FGFR4 (Homo sapiens, UniProt P22455); binding, BLI): 0.0561 µM

CC(C)C[C@H](NC(=O)[C@@H]1CCCN1C(=O)[C@H](CCCCN)NC(=O)c1ccc(O[C@@H]2O[C@H](CO)[C@H](O)[C@H](O)[C@H]2O)cc1)C(=O)NCCCC[C@H](NC(=O)[C@H](CC(C)C)NC(=O)[C@@H]1CCCN1C(=O)[C@H](CCCCN)NC(=O)c1ccc(O[C@@H]2O[C@H](CO)[C@H](O)[C@H](O)[C@H]2O)cc1)C(=O)N[C@@H](Cc1ccccc1)C(=O)N[C@@H](CS)C(N)=O
Kd (lecA; binding, ITC; pH 7.5): 0.164 µM

Cc1cc(S(=O)(=O)N(C)CC(=O)Nc2ccn(C)c(=O)c2)c2[nH]ncc2c1
Kd (DLD (Homo sapiens, UniProt P09622); binding, ITC): 0.592 µM

N[C@@H](Cc1ccccc1)C(=O)N[C@@H](CCC(=O)O)C(=O)N[C@@H](CCC(=O)O)C(=O)N[C@@H](CC(=O)O)C(=O)O
Kd (LY96 (Homo sapiens, UniProt Q9Y6Y9); binding, SPR): > 0.1 µM

CC(C)P(=S)(NP(=[Se])(C(C)C)C(C)C)C(C)C
Kd (Alpha-amylase (Bacillus subtilis, UniProt P00691); fluorescence quenching; 298 K): 434 µM

N=C(N)NCCC[C@H](NC(=O)[C@@H]1CCCN1C(=O)[C@H](CCCNC(=N)N)NC(=O)[C@H](Cc1c[nH]c2ccccc12)NC(=O)CNC(=O)[C@@H](N)Cc1c[nH]cn1)C(=O)N[C@@H](CO)C(=O)NCC(=O)N[C@@H](CCCCN)C(=O)N[C@@H](CC(N)=O)C(=O)N[C@@H](CCC(N)=O)C(=O)N[C@@H](CC(N)=O)C(=O)O
Kd (Small ubiquitin-related modifier 1 (Homo sapiens, UniProt P63165); binding, BLI): 0.0885 µM

C=CCOC(=O)NCCC[C@@H](NC(=O)[C@H](CCCNC(=N)N)NC(=O)[C@H](C)NC(=O)[C@H](CCCNC(=N)N)NC(=O)CNC(=O)[C@H](CCCNC(=N)N)NC(=O)[C@@H](NC(=O)[C@@H](NC(=O)CNC(=O)[C@H](CC(C)C)NC(=O)[C@@H]1CCCN1C(=O)[C@H](CC(=O)O)NC(=O)[C@H](CO)NC(=O)[C@H](C)NC(=O)c1cc(-c2ccccc2)nc2ccccc12)C(C)C)C(C)C)C(N)=O
Kd (Klotho (Homo sapiens, UniProt Q9UEF7); binding, BLI competition): 0.0012 ± 0.0004 µM

CC[C@H](C)[C@H](NC(=O)CNC(C)=O)C(=O)N[C@@H](CCCNC(=N)N)C(=O)N[C@@H](CCC(=O)O)C(=O)N[C@@H](C)C(=O)N[C@H](C(=O)N[C@@H](CC(C)C)C(=O)N[C@@H](CCCNC(=N)N)C(=O)N[C@@H](C)C(=O)N[C@@H](Cc1c[nH]c2ccccc12)C(=O)N[C@@H](CCC(=O)O)C(=O)N[C@@H](CCCNC(=N)N)C(=O)N[C@@H](CCCNC(=N)N)C(=O)N[C@@H](Cc1ccc(O)cc1)C(=O)NCC(=O)N[C@@H](Cc1ccccc1)C(=O)N1CCC[C@H]1C(=O)N[C@@H](CCCNC(=N)N)C(=O)N1CCC[C@H]1C(=O)N[C@@H](CC(C)C)C(=O)N[C@@H](CCCNC(=N)N)C(=O)N[C@@H](CO)C(=O)N[C@@H](CCC(=O)O)C(N)=O)[C@@H](C)O
Kd (Antirepressor protein CarS (carS, Myxococcus xanthus, UniProt Q06911); isothermal titration calorimetry; pH 7.5, 20 °C): 0.175 ± 0.019 µM

CC(C)C[C@H](NC(=O)[C@@H]1CCCN1C(=O)[C@H](CCCCN)NC(=O)C[C@@H]1O[C@@H](C)[C@@H](O)[C@@H](O)[C@@H]1O)C(=O)NCCCC[C@H](NC(=O)[C@H](CC(C)C)NC(=O)[C@@H]1CCCN1C(=O)[C@H](CCCCN)NC(=O)c1ccc(O[C@@H]2O[C@H](CO)[C@H](O)[C@H](O)[C@H]2O)cc1)C(=O)N[C@@H](Cc1ccccc1)C(=O)N[C@@H](CS)C(N)=O
Kd (lecA; binding, ITC; pH 7.5): 7.34 µM

CC(=O)N[C@@H](CCCNC(=N)N)C(=O)N[C@H](C(=O)N[C@@H](CCCCN)C(=O)N[C@@H](CCC(N)=O)C(=O)N[C@H](C(=O)N[C@@H](C)C(=O)N[C@@H](CCCNC(=N)N)C(=O)N[C@@H](CCCCNC(=O)c1ccccc1)C(=O)N[C@@H](CO)C(=O)N[C@H](C(=O)NCC(=O)NCC(=O)N[C@@H](CCCCN)C(=O)N[C@@H](C)C(=O)N1CCC[C@H]1C(N)=O)[C@@H](C)O)[C@@H](C)O)[C@@H](C)O
Kd (Protein AF-9 (Homo sapiens, UniProt P42568); binding, ITC; pH 7.5): 5.97 µM

CC[C@H](C)[C@H](NC(=O)CNC(=O)[C@H](CO)NC(=O)[C@H](C)NC(=O)[C@H](CC(C)C)NC(=O)[C@H](C)NC(=O)[C@H](CC(=O)O)NC(=O)[C@@H](NC(=O)[C@H](CCC(=O)O)NC(=O)[C@H](Cc1c[nH]cn1)NC(=O)[C@H](CCC(=O)O)NC(=O)[C@H](CC(=O)O)NC(=O)[C@H](Cc1ccccc1)NC(=O)[C@H](CC(=O)O)NC(=O)CNC(=O)[C@H](Cc1ccccc1)NC(=O)[C@@H](NC(=O)[C@@H](N)CC(C)C)[C@@H](C)O)C(C)C)C(=O)N[C@H](C(=O)N[C@@H](Cc1ccccc1)C(=O)NCC(=O)N[C@@H](CC(=O)O)C(=O)N[C@@H](Cc1ccccc1)C(=O)N[C@@H](CC(=O)O)C(=O)N[C@@H](CC(=O)O)C(=O)O)[C@@H](C)O
Kd (Ras GTPase-activating protein-binding protein 1, NTF2-like domain (G3BP1, Homo sapiens, UniProt Q13283, F33W); binding): no binding

CC(=O)NC1C(OC2C(O)C(CO)OC(OC3C(O)C(CO)OC(OC4C(O)C(O)OC(CO)C4O)C3NC(C)=O)C2OC2OC(C)C(O)C(O)C2O)OC(CO)C(O)C1O (stereo not drawn)
Kd (sly (Streptococcus suis, UniProt Q55996); binding): 5.7 µM

CC(C)C[C@H](NC(=O)[C@H](CCCNC(=N)N)NC(=O)[C@H](CCC(=O)O)NC(=O)[C@H](CCCCN)NC(=O)[C@H](CCCNC(=N)N)NC(=O)[C@H](CCCCN)NC(=O)[C@H](CCC(=O)O)NC(=O)[C@H](CC(C)C)NC(=O)[C@H](Cc1ccccc1)NC(=O)[C@H](CCCNC(=N)N)NC(=O)[C@H](C)NC(=O)[C@H](CC(C)C)NC(=O)[C@H](CO)NC(=O)[C@H](C)NC(=O)[C@H](CCCCN)NC(=O)[C@H](CCCNC(=N)N)NC(=O)[C@H](C)NC(=O)[C@H](CCC(N)=O)NC(=O)[C@@H]1CCCN1C(=O)[C@@H](NC(=O)[C@H](CO)NC(=O)c1ccc2c(c1)C(=O)OC21c2ccc(N(C)C)cc2Oc2cc(N(C)C)ccc21)C(C)C)C(=O)O
Kd (Transcription factor MYC2 (MYC2, Arabidopsis thaliana, UniProt Q39204); binding, fluorescence anisotropy; pH 8.0, MYC2 residues 55-259): 3.6 ± 0.8 µM

N=C(N)NCCC[C@H](NC(=O)[C@H](Cc1ccccc1)NC(=O)[C@@H]1CCCN1C(=O)[C@H](CO)NC(=O)[C@H](Cc1ccccc1)NC(=O)CNC(=O)[C@@H]1CCCN1C(=O)[C@@H]1CCCN1C(=O)[C@@H](N)CCCNC(=N)N)C(=O)N[C@@H](CCCCNS(=O)(=O)c1ccc(C2=c3cc4c5c(c3Oc3c2cc2c6c3CCCN6CCC2)CCC[N+]=5CCC4)c(S(=O)(=O)[O-])c1)C(=O)O
Kd (Oligopeptide-binding protein OppA (oppA, Lactococcus lactis subsp. lactis, UniProt Q07741); binding, fluorescence anisotropy; pH 6, 30 °C, added: dye-labelled peptide): 13.1 ± 0.7 µM

CC[C@H](C)[C@H](NC(=O)[C@H](CCCNC(=N)N)NC(=O)NC[C@H](CCC(N)=O)NC(=O)NC[C@H](CC(C)C)NC(=O)NC[C@H](CCCNC(=N)N)NC(=O)NC[C@H](Cc1ccc2ccccc2c1)NC(=O)[C@H](CCCCN)NC(=O)[C@H](CCC(=O)O)NC(=O)[C@H](CCC(=O)O)NC(=O)[C@@H](NC(=O)[C@H](CO)NC(=O)[C@H](C)NC(C)=O)[C@@H](C)O)C(=O)N[C@@H](C)C(N)=O
Kd (Histone chaperone ASF1A (Homo sapiens, UniProt Q9Y294); binding, ITC; pH 7.5): 13.1 µM

CC[C@H](C)[C@H](NC(=O)[C@@H](NC(=O)[C@H](Cc1c[nH]c2ccccc12)NC(=O)[C@H](CCC(=O)O)NC(=O)[C@H](CO)NC(=S)Nc1ccc2c(c1)C(=O)OC21c2ccc(O)cc2Oc2cc(O)ccc21)C(C)C)C(=O)N[C@H](C(=O)N[C@H](C(=O)N1CCC[C@H]1C(=O)N[C@@H](Cc1ccccc1)C(=O)N[C@@H](CC(C)C)C(=O)N[C@@H](C)C(=O)N[C@@H](CC(N)=O)C(=O)N[C@@H](CC(C)C)C(=O)O)[C@@H](C)CC)C(C)C
Kd (Rgg transcriptional regulator (Streptococcus pneumoniae, UniProt A0A0E7KI02); binder, fluorescence polarization; 20 min, pH 7.4, 20 °C, fluorescein-labelled peptide): 3.3 ± 0.1 µM

Repeated from above:
N[C@@H](Cc1ccccc1)C(=O)N[C@@H](CCC(=O)O)C(=O)N[C@@H](CCC(=O)O)C(=O)N[C@@H](CC(=O)O)C(=O)O
Kd (LY96 (Homo sapiens, UniProt Q9Y6Y9); binding, SPR): > 0.1 µM
